Experimental data of several laboratories.
Protocols differ between the studies behind these lines. Numbers after ± are the reported error.

The MRT of `CO/N=C1\C[C@]2(C[C@@H]3C[C@@H](C/C=C(\C)C[C@@H](C)/C=C/C=C4\CO[C@@H]5[C@H](O)C(C)=C[C@@H](C(=O)O3)[C@]45O)O2)O[C@H](/C(C)=C/C(C)C)[C@H]1C` is reported as 70.3 ± 25 h (HPLC, non-compartmental; Corriedale lambs, parasitized, plasma; oral, 0.2 mg/kg, together with: closantel 10 mg/kg oral).
`Cc1[nH]nc(C(F)(F)F)c1Cc1sc2c(c1C(=O)N1C[C@](C)(O)CO1)c(=O)n(C)c(=O)n2C(C)C`: “elimination rate constant” 0.000314 ± 2.5e-05 s⁻¹ (TMDD model; BALB/c mice, female, plasma; intravenous and oral).
With `C[C@@]12C[C@@]3(O)O[C@@H](O1)[C@]1(COC(=O)c4ccccc4)[C@H]3C[C@@]12O[C@@H]1O[C@H](CO)[C@@H](O)[C@H](O)[C@H]1O` the accuracy was 95.2 % nominal (rat plasma QC samples; 750 ng/mL, 45 days, -80 °C, long-term stability, middle QC).
`N#Cc1ccc(OCC2=C(C(F)F)C(=O)c3ccccc3C2=O)cc1`: “cathodic peak potential” -0.414 V (cyclic voltammetry; DMSO; first wave, vs Ag/AgCl).
For `COc1cc(Nc2ncc3c(n2)-c2ccc(Cl)cc2C(c2c(F)cccc2OC)=NC3)ccc1C(=O)O`, “AUC dosing interval” read 10.2 µM·h (human, plasma; oral, 20 mg twice daily, day 7, steady state geometric mean).
For `CCCC[C@@H]1NC(=O)[C@@H](NC(=O)[C@H](CCC(=O)O)NC(=O)CNC(=O)CN2CCN(CC(=O)O)CCN(CC(=O)O)CCN(CC(=O)O)CC2)CCCCNC(=O)C[C@@H](C(N)=O)NC(=O)[C@H](C(C)C)NC(=O)[C@@H]2CCCN2C(=O)[C@H](CCCNC(=N)N)NC(=O)CNC(=O)[C@H](Cc2c[nH]c3ccccc23)NC(=O)[C@H](CCCNC(=N)N)NC(=O)[C@@H](Cc2ccccc2)NC(=O)[C@H](Cc2c[nH]cn2)NC(=O)[C@H](CCC(=O)O)NC1=O` [indium-111 labelled], the tissue uptake was 0.11 ± 0.05 %ID/g (C57 mice, B16/F10 lung metastatic melanoma, spleen; intravenous, 0.037 MBq, 4 h).
For `C[C@H](Oc1ccc(-c2nc(-c3ccc4[nH]cnc4c3)no2)cc1C(F)(F)F)C(F)(F)F`, the plasma concentration was 14 ± 4 nM (cynomolgus monkey, aneurysm model, plasma; 0.1 mg/kg once daily, 1 h post-dose, 4 weeks dosing).
`CS(=O)(=O)n1cc2c(n1)CN([C@H]1CO[C@H](c3cc(F)ccc3F)[C@@H](N)C1)C2` gave an AUC(0-last) of 4.7 µM·h (healthy male human, plasma; oral, 5 mg, fasted single dose).
The Vd of `COc1cccc(OCCCN)c1-c1cc(Nc2cnc(C#N)cn2)n[nH]1` is reported as 1380 L (human, plasma; intravenous, 105 mg/m², patients, infusion).
`COc1cccc(-c2ccc(NC(=O)C3=C(C(=O)O)CCC3)c(F)c2)c1` gave a Vd/F of 10.2 L (male human, plasma; oral, 40 mg, multiple doses, once daily).
`Cc1ccc(Nc2c(F)cccc2Cl)c(CC(=O)O)c1` gave an EC20 of > 200 µM (mitochondrial swelling; BALB/cByJ female mouse liver mitochondria; 30 min, together with: succinate + rotenone; baseline: CaCl2 maximal swelling).
For `COc1cccc(CN)c1O`, the Vd/F was 486 L/kg (male C57BL/6 mouse, plasma; intraperitoneal, 200 mg/kg, single dose).
`O=P(O)(O)C(Cl)(Cl)P(=O)(O)O` gave an EC20 of > 400 µM (cytochrome c release, ELISA; BALB/cByJ female mouse liver mitochondria; 30 min; baseline: alamethicin maximal release).
The t1/2 of `CNC(=O)c1cc(Oc2ccc(NC(=O)Nc3ccc(Cl)c(C(F)(F)F)c3)cc2)ccn1` is reported as 23.3 ± 6.68 h (LC-MS/MS; nude mouse subcutaneous tumour model, tumour tissue; intratumoral, 2 mg/kg, PDC 4 control).
For `NCCCC(=O)O`, the brain concentration was 272 ± 15.2 ng/mL (LC-MS; Sprague-Dawley rat, male, anaesthetised, brain homogenate supernatant; intravenous infusion, 50 mg/kg/h, steady state).
With `Cc1cn([C@H]2C[C@H](N=[N+]=[N-])[C@@H](CO)O2)c(=O)[nH]c1=O` the EC20 was > 200 µM (mitochondrial swelling; BALB/cByJ female mouse liver mitochondria; 30 min, together with: succinate + rotenone; baseline: CaCl2 maximal swelling).
With `NCCCC[C@@H]1NC(=O)[C@@H](Cc2c[nH]c3ccccc23)NC(=O)[C@H](c2ccccc2)NC(=O)[C@@H]2C[C@@H](OC(=O)NCCN)CN2C(=O)[C@H](Cc2ccccc2)NC(=O)[C@H](Cc2ccc(OCc3ccccc3)cc2)NC1=O` the alpha half-life was 2.2 ± 0.8 h (radioimmunoassay; healthy human male volunteers, plasma; subcutaneous, 30 µg).
With `CC(=O)O[C@H]1C(=O)[C@@]2(C)[C@H]([C@H](OC(=O)c3ccccc3)[C@]3(O)C[C@H](OC(=O)[C@H](O)[C@@H](NC(=O)c4ccccc4)c4ccccc4)C(C)=C1C3(C)C)[C@]1(OC(C)=O)CO[C@@H]1C[C@@H]2O` the end-of-infusion concentration was 6560 ± 1570 ng/mL (patients; i.v., 200 mg/m^2, 3 h, together with: lenvatinib 6 mg twice daily, carboplatin).
With `Nc1ccc(S(=O)(=O)c2ccc(N)cc2)cc1` the EC20 was > 400 µM (mitochondrial swelling; BALB/cByJ female mouse liver mitochondria; 30 min, together with: succinate + rotenone; baseline: CaCl2 maximal swelling).
`CC[C@H](C)[C@H](NC(=O)[C@H](CCCCN)NC(=O)[C@@H](NC(=O)[C@H](CC(N)=O)NC(=O)[C@H](C)NC(=O)[C@H](CCCNC(=N)N)NC(=O)[C@H](CCCNC(=N)N)NC(=O)[C@H](CC(N)=O)NC(=O)[C@H](CCCNC(=N)N)NC(=O)[C@H](CCCNC(=N)N)NC(=O)[C@H](C)NC(=O)[C@@H](NC(=O)[C@H](CO)NC(=O)[C@@H](NC(=O)[C@@H](NC(=O)[C@H](CS)NC(=O)[C@H](CCCCN)NC(=O)[C@@H](N)CCCNC(=N)N)C(C)C)[C@@H](C)CC)C(C)C)[C@@H](C)CC)C(=O)N[C@@H](CC(C)C)C(=O)N[C@@H](CS)C(=O)N[C@@H](CC(N)=O)C(=O)O` — result for “single disulfide form”: 29% (LC-MS; PBS; 0.1 mg/mL).
`CC(C)=CCC[C@]1(C)[C@@H](CC=C(C)C)C[C@@]2(CC=C(C)C)C(=O)[C@]1(C(=O)C(C)C)C(=O)C(CC=C(C)C)=C2O` has an EC20 of > 10 µM (cytochrome c release, ELISA; mouse liver mitochondria; 30 min; baseline: maximal release by alamethicin).
`O=C1CCc2ccc(OCCCCN3CCN(c4cccc(Cl)c4Cl)CC3)cc2N1` has an AUC of 1370 ± 211 ng·h/mL (healthy Japanese men, CYP2D6 EM, plasma; oral, 3 mg aripiprazole single, together with: paroxetine 20 mg/day).
`COc1ccc2c(c1)c(CC(=O)O)c(C)n2C(=O)c1ccc(Cl)cc1` has an EC20 of > 800 µM (mitochondrial swelling; BALB/cByJ female mouse liver mitochondria; 30 min, together with: succinate + rotenone; baseline: CaCl2 maximal swelling).
For `CCN1CCN(c2ccc(Nc3cc(N(C)C(=O)Nc4c(Cl)c(OC)cc(OC)c4Cl)ncn3)cc2)CC1`, the AUC(0-t) was 503 ng·h/mL (LC-MS/MS; juvenile female Crl:WI(Han) rats, plasma; oral gavage, 1.0 mg/kg/day, postnatal day 17).
`COc1cccc(N2CCN(C3=Nc4c(F)cccc4[C@H](CC(=O)O)N3c3cc(C(F)(F)F)ccc3OC)CC2)c1` has a clearance of 78.5 ± 16.3 mL/min (UHPLC-MS/MS; healthy women, plasma; intravenous infusion, 480 mg single dose, 60 min infusion, HPβCD formulation).
For `CC1(C)C(/C=C/C=C/C=C/C=C2\N(CCCCS(=O)(=O)O)c3ccc4ccccc4c3C2(C)C)=[N+](CCCCS(=O)(=O)[O-])c2ccc3ccccc3c21`, “photoacoustic signal slope” read 1.13 ± 0.06 µM⁻¹ (glucose solution in agar phantom; 21 MHz, gain 40 dB; baseline: India Ink).
`O=C(O)CCCCC(=O)O` — result for “free concentration ratio”: 23 (human hemodialysis patients, plasma ultrafiltrate; pre-treatment; baseline: hemodialysis over normal subjects).
For `OC[C@H]1O[C@@](CO)(O[C@H]2O[C@H](CO)[C@@H](O)[C@H](O)[C@H]2O)[C@@H](O)[C@@H]1O`, the EC20 was > 800 µM (mitochondrial swelling; BALB/cByJ female mouse liver mitochondria; 30 min, together with: succinate + rotenone; baseline: CaCl2 maximal swelling).
Under “unbound brain concentration”, `Cc1cc(Oc2cncnc2)cc(C(=O)Nc2ccc(F)cn2)n1` is recorded as 115 nM (CD-1 mouse, male, brain; intraperitoneal, 3.0 mg/kg, 15 min).
With `Cn1c(-c2ccc(C(N)=O)cc2F)nnc1C(C)(C)Oc1c(F)cc(Cl)cc1F` the Cmax median was 214 ng/mL (young Japanese adults, plasma; oral, 20 mg single dose, day 1, high-dose multiple-dose study).
With `CC(C)(c1ccc(O)cc1)c1ccc(O)cc1` the half-life was 3.04 h (GC-MS; exposure tank water with snails, reconstituted water; 500 ng/L nominal, 27 °C).
`CC(C)[C@H](NC(=O)[C@@H]1CCCN1C(=O)[C@H](CCCNC(=N)N)NC(=O)[C@H](CS)NC(=O)[C@H](Cc1c[nH]c2ccccc12)NC(=O)[C@H](CCCNC(=N)N)NC(=O)[C@@H](Cc1ccccc1)NC(=O)[C@H](Cc1c[nH]cn1)NC(=O)[C@H](CCC(=O)O)NC(=O)[C@H](CS)NC(=O)[C@H](CS)NC(=O)[C@H](CCCCN)NC(=O)[C@@H]1CC(=O)N[C@@H](CCCNC(=N)N)C(=O)N[C@@H]([C@@H](C)O)C(=O)N[C@@H](CC(=O)O)C(=O)N[C@H](Cc2ccc(O)cc2)C(=O)N1)C(N)=O` [technetium-99m labelled] has a tissue uptake of 0.33 ± 0.03 %ID/g (C57 mouse, female, B16/F1 melanoma, muscle; intravenous, 2 h, together with: NDP-MSH 10 µg co-injected).
For `CNS(=O)(=O)Cc1ccc2[nH]cc(CCN(C)C)c2c1`, “log intrinsic permeability” read -5.06 (in situ brain perfusion; rat; no efflux inhibition).
`CC(C)[C@H](N)C(=O)OCC1(CO)C/C1=C/n1cnc2c(=O)[nH]c(N)nc21.Cl` (mixture of isomers): “elimination rate constant” 7.17e-05 s⁻¹ (measured: prodrug; Swiss-Webster mice, male, plasma; intravenous, 24.6 mg/kg).
For `CCN(CC)CCNC(=O)c1c(C)[nH]c(/C=C2\C(=O)Nc3ccc(F)cc32)c1C`, “median trough plasma concentration” read 35.9 ng/mL (human, plasma; oral, 20 mg/m2, day 7).
`O=C(NC[C@H]1CN(c2ccc(N3CCOCC3=O)cc2)C(=O)O1)c1ccc(Cl)s1` — result for “apparent clearance CL/F”: 71 ± 15.2 mL/min/kg (Sprague-Dawley rat, male, plasma; oral, 10 mg/kg).
`O=C([O-])CN1CCN(CC(=O)[O-])CCN(Cc2ccc([N+](=O)[O-])cc2)CCN(CC(=O)[O-])CC1.[67Ga+3]`: “intact radiolabelled complex” 96.7 ± 0.5% (RP-TLC; murine plasma; 3 h, 37 °C, 5% CO2).
`COc1c(N2C[C@@H]3CCCN[C@@H]3C2)c(F)cc2c(=O)c(C(=O)O)cn(C3CC3)c12` — result for “subjects with adverse events”: 41.9% (healthy adults; oral, 400 mg single dose).
`Cc1cccc(-c2nc(Nc3ccncc3)c3ccn(C)c3n2)n1` has a t1/2 of ~2 h (mouse, CD1, plasma; oral, 10 mg/kg).
`CC1=C2C[C@H]3[C@@H](CC[C@@H]4C[C@H](NS(C)(=O)=O)CC[C@@]43C)[C@@H]2CC[C@@]2(C1)O[C@@H]1C[C@H](C)CN[C@H]1[C@H]2C` gave an AUC(0-24) of 2100 ng·h/mL (patients, plasma; oral, 60 mg daily, day 22, cycle 1).
`C[C@@H](O)[C@H]1C(=O)N2C(C(=O)O)=C(S[C@@H]3CN[C@H](C(=O)N(C)C)C3)[C@H](C)[C@H]12` — result for “time above MIC”: 69% (microdialysis; pig, Danish Landrace, subcutaneous adipose tissue; intravenous, 1000 mg over 10 min, 450 min dosing interval, together with: 0.25 µg/mL MIC; baseline: dosing interval).
With `Cc1cc(C(=O)NC(C)(C)COc2cccc3c2C(N)=NS(=O)(=O)N3)cc(C)n1` the bioavailability was 0.43% (female Sprague-Dawley rat, plasma; oral, 10 mg/kg, single dose).
`Cc1c(C)c2c(c(C)c1O)CCC(C)(COc1ccc(CC3SC(=O)NC3=O)cc1)O2` (stereo not shown) has an EC20 of > 200 µM (mitochondrial swelling; BALB/cByJ female mouse liver mitochondria; 30 min, together with: succinate + rotenone; baseline: CaCl2 maximal swelling).
Under “Vz/F (geometric mean)”, `CNC(=O)c1ccc(-c2cnc3ncc(Cc4ccc5ncccc5c4)n3n2)cc1F` is recorded as 227 L (human, severe hepatic impairment (Child-Pugh C), plasma; oral, 200 mg single dose).
For `O=C(Cc1cccc(OC(F)(F)F)c1)Nc1ccc(CCCCc2nnc(NC(=O)Cc3ccccn3)s2)nn1`, the AUC(0-8h) was 5160 ng·h/mL (human patients, plasma; oral, 600 mg three times daily fasted, cycle 1 day 15 steady state).
The mean concentration of `COc1cc(/C=C/C(=O)OC2C(O)CC(O)(C(=O)O)CC2O)ccc1O` (stereo not shown) is reported as 1.8 nM (human, fasted baseline, cerebrospinal fluid).

Some of these lines once more:
`CC(C)[C@H](N)C(=O)OCC1(CO)C/C1=C/n1cnc2c(=O)[nH]c(N)nc21.Cl` (mixture of isomers): “elimination rate constant” 7.17e-05 s⁻¹ (measured: prodrug; Swiss-Webster mice, male, plasma; intravenous, 24.6 mg/kg).
With `Cn1c(-c2ccc(C(N)=O)cc2F)nnc1C(C)(C)Oc1c(F)cc(Cl)cc1F` the Cmax median was 214 ng/mL (young Japanese adults, plasma; oral, 20 mg single dose, day 1, high-dose multiple-dose study).
